Measured values gathered from unrelated publications.
Numbered parts are unrelated; each lists some results of a single study. Changes are numbered by the printed parent chain.

Study 1 — target: CCNE2, cyclin fold, Cln2 fusion (human); technique: yeast growth competition, sequencing; medium: yeast; notes: strong parent motif; reference: not given; direction: higher = stronger binding; measurement: normalised enrichment score
Parent: PKN2 docking peptide (human); VSAVRKLDFSDTM
T12R: 4.85
D8I: 3.42
D8M: 2.57
S2E: 2.37
A3R: 0.333
K6M: 2.45
A3F: 3.55
R5D: 0.346
D8W: 2.51
F9D: 0.0242
R5L: 0.13
D11V: 5.01
T12D: 3.91
K6Q: 3.46
S10Y: 3.25
V4C: 4.56
V4D: -0.273
R5Y: 0.368
T12W: 5.49
A3W: 4.5
T12E: 3.91
A3S: 1.11
R5M: 0.445
S2K: 4.55
K6E: 1.08

Study 2 — technique: competition protein-binding microarray; molecule type: double-stranded DNA, one strand shown; medium: in vitro; tested at: 2 µM; added: Pho4 competitor, 0.05 µM; direction: higher = stronger binding; measurement: fluorescence intensity; shared flanks, not repeated: … GTCTTGATTCGCTTGACGCTGCTG
Target: Centromere-binding protein 1, full length, His-tagged (CBF1, Saccharomyces cerevisiae, UniProt P17106, residues 1-351)
Sequence of UniProt P17106 (whole entry, looked up): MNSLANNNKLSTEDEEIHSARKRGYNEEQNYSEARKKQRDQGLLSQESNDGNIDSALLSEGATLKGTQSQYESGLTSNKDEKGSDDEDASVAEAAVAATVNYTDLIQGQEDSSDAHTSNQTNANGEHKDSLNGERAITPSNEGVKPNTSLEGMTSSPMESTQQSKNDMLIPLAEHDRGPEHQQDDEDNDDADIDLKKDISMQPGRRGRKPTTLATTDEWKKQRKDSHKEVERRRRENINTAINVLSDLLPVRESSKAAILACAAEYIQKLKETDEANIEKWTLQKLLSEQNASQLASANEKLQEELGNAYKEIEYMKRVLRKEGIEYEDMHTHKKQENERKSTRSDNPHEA
Notes: whole 60-bp probe, lowest competitor level
GGCGTCGTACAAGAGAACGTGGGTACTTTTTAGGCT: 90.2 a.u.
GTAGTCCTGAGCCAACGCATGCCGGTTTTGTTGGTG: 74.2 a.u.
GGGTAGCCCTCTCAACACGTGGAGGGTAACCTTTTC: 520 a.u.
TGCGCAACAACTTGCCACGTGGGTGTATGTCTAGAA: 1110 a.u.
GCCCACTTTTTTTCAAATGTGTGAGACACCCATACC: 88.7 a.u.
CTTCTGTAAATTTGGAGTGTGGGTGGACGCGCCCCG: 76.5 a.u.
CCGAAGCAAATGATGGCCGTGACGGCAGCACAATAG: 69.2 a.u.
CTTTCCCGATCTTTTCACGTGACCTTAGCACATTTG: 7560 a.u.
GTCTTGTCTCATTGATAGGTGGGTGTCCCCACTTCA: 90 a.u.
GTTACTATTCTTTGCATCGTGCATCGACTTACACCA: 88.2 a.u.
GCACCAGGAAGTTGTCATGCTTGATGCTCGGCTCCC: 72.2 a.u.
CGCTGCAGCCGCTGCCACGCGTTCCCCGCCCGAGCC: 63.6 a.u.
GGGAATGTAGCGGAGCATGTGATGGAAGAGCTTCGG: 413 a.u.
AAATTACTAAGTTGTCACTTGACTTACCCCGTATGA: 161 a.u.
AAAGCGGTAATTTTTCACGTGCTTTCACATATCTAT: 1270 a.u.
CCTTTTCTGGAGGTACATGTGCGCCCCTGATGAAGA: 105 a.u.
TCATGCTAAAAATGAGGCGTGGGACAATATTCAGTA: 74 a.u.
CGTCCTAGTGATTTTCACGTGGCTTCCATGAGGAAG: 783 a.u.
TGCGCAACAACTTGTCACCGGACTTTATGTCTAGAA: 98.6 a.u.
CTTCTGTAAATTTGTCACAGCACTTGACGCGCCCCG: 87.9 a.u.
CGTAGTATGGCAATATTCGTGGGTATAACATTCTGC: 80.1 a.u.
AGTAATGTCTTTCAACACGTCAACAACTCCTCGGGA: 85.7 a.u.
AATCAGCTTATTCAGCTCGTGGAAGGTTGTCCAGTC: 70.1 a.u.
TTCTGCGCAGAGAAAGGCGTGCAAAGTCCGTTTGAC: 66.7 a.u.
GTCTTGTCTCATTGCCTCGTGGGTGTCCCCACTTCA: 92.1 a.u.

Study 3 — technique: aptamer microarray, sandwich; molecule type: DNA with 2'F-ANA; medium: in vitro; tested at: 200 nM; added: Cy3 exosite-II aptamer, 400 nM; direction: higher = stronger binding; measurement: mean fluorescence intensity; sequence: GGTTGGTGTGGTTGG
Target: Prothrombin, mature alpha-thrombin (F2, Homo sapiens, UniProt P00734)
Notes: whole 15-mer aptamer, many near background
2'F-ANA at 1 3 5 7 9 10 14: 44.2 a.u.
2'F-ANA at 1 2 4 5 10 12 13 14: 45.8 a.u.
2'F-ANA at 3 5 6 7 8 9 10 13 14 15: 112 a.u.
2'F-ANA at 2 3 11 15: 699 a.u.
2'F-ANA at 1 3 4 5 7 11 12 15: 207 a.u.
2'F-ANA at 1 6 7 8 10 12 14 15: 50.1 a.u.
2'F-ANA at 2 3 5 7 9 12 13 15: 133 a.u.
2'F-ANA at 3 5 6 7 8 10 11 13 15: 67.6 a.u.
2'F-ANA at 1 4 9 10: 46.5 a.u.
2'F-ANA at 4 6 8 11 12 13 14: 97.6 a.u.
2'F-ANA at 1 6 7 10 12 14 15: 49.3 a.u.
2'F-ANA at 2 3 5 8 9 11 12 13: 150 a.u.
2'F-ANA at 1 3 4 5 7 9 10 12 14 15: 45.9 a.u.
2'F-ANA at 2 3 4 9 10 13 14 15: 168 a.u.
2'F-ANA at 1 4 5 7 8 9 11 12 15: 90.9 a.u.
2'F-ANA at 1 3 4 5 10 12 13 15: 47.5 a.u.
2'F-ANA at 2 4 5 6 7 8 9 10 12 15: 145 a.u.
2'F-ANA at 1 2 4 7 8 10 11 12 13 15: 57.4 a.u.
2'F-ANA at 1 2 4 5 7 8 9 13: 48.3 a.u.
2'F-ANA at 1 3 5 8 9 10 11 15: 48.7 a.u.
2'F-ANA at 3 4 7 10 13 14 15: 218 a.u.
2'F-ANA at 1 3 5 7 8 9 11 12 13 14 15: 52.1 a.u.
2'F-ANA at 2 3 4 6 8 9 15: 522 a.u.
2'F-ANA at 1 2 3 4 7 8 10 13: 55 a.u.
2'F-ANA at 1 2 3 4 6 7 10 14 15: 71.4 a.u.

Study 4 — technique: DHFR PCA, deep sequencing; medium: yeast; added: (+)-ABA 200 µM; reference: wild-type fitted maximum; direction: higher = stronger binding; measurement: relative binding score
Target: ABI1, truncated, D143A, DHFR fusion (Arabidopsis thaliana)
Notes: methotrexate growth selection, single substitutions
Parent: PYL1, truncated, DHFR fusion (Arabidopsis thaliana); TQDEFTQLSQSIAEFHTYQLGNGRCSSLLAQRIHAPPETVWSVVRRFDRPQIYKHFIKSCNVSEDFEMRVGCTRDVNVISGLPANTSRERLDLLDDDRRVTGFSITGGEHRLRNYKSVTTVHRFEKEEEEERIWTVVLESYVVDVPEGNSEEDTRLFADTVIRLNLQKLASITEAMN; partner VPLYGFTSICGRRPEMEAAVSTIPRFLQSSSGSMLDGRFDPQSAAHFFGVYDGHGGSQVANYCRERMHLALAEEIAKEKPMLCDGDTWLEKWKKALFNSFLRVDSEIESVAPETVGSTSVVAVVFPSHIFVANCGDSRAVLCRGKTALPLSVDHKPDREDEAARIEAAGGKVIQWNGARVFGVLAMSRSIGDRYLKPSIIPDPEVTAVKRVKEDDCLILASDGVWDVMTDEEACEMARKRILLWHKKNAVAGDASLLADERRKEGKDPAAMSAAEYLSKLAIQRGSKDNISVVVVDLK
V70T: 96.8%
G108C: 39.9%
W41Y: 60.7%
E139Q: 99.4%
E89T: -3.84%
I12M: 79.6%
Q167D: 84.5%
C25V: 102%
P146V: 59.4%
G148N: 87.9%
V62R: 62.5%
R49H: 97.4%
Q31M: 73.8%
T39G: 83.4%
T1Y: 98.4%
